Assay results from different studies.
Each numbered part is a random draw from the data of one study; scales do not carry over between parts. Substitutions count along the parent as printed.

Series 1 — target: CCND2, cyclin fold, Cln2 fusion (human); method: yeast growth competition, sequencing; sample: yeast; notes: weak parent motif; reference: not given; direction: higher = stronger binding
Starting sequence: GMNC docking peptide (human); KNAKRNLSSEFAN; partner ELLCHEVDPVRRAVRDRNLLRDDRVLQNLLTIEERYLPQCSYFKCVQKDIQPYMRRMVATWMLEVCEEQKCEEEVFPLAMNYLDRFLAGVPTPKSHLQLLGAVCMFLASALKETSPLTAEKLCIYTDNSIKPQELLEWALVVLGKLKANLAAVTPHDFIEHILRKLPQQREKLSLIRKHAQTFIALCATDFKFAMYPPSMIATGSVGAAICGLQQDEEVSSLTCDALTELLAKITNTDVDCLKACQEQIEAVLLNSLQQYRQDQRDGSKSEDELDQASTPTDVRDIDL
`KNAKRNFSSEFAN [L7F]`: “normalised enrichment score” -0.0226.
Under “normalised enrichment score”, `KNAKRNMSSEFAN [L7M]` is recorded as 0.102.
`KNAKRNLISEFAN [S8I]` — result for “normalised enrichment score”: 0.0492.
`KNAKRNLSSEFSN [A12S]` — result for “normalised enrichment score”: -0.0588.
`KNAYRNLSSEFAN [K4Y]` — result for “normalised enrichment score”: 0.322.
`KNTKRNLSSEFAN [A3T]`: “normalised enrichment score” 0.211.
`KNAKRALSSEFAN [N6A]`: “normalised enrichment score” 0.00418.
`KNAKRILSSEFAN [N6I]` — result for “normalised enrichment score”: -0.207.
`KNSKRNLSSEFAN [A3S]`: “normalised enrichment score” 0.177.
For `KNAKRNLSSTFAN [E10T]`, “normalised enrichment score” read -0.243.
For `KNAKRNLSQEFAN [S9Q]`, “normalised enrichment score” read 0.0753.
`KNAKRNPSSEFAN [L7P]`: “normalised enrichment score” 0.0101.
`KNAKRNLVSEFAN [S8V]` — result for “normalised enrichment score”: 0.172.
`KNAKRNLSSYFAN [E10Y]` — result for “normalised enrichment score”: -0.871.
`KNIKRNLSSEFAN [A3I]` — result for “normalised enrichment score”: 0.355.
For `KNAKRNLSSEGAN [F11G]`, “normalised enrichment score” read 0.248.
`KNAPRNLSSEFAN [K4P]` — result for “normalised enrichment score”: 0.385.
Under “normalised enrichment score”, `KNANRNLSSEFAN [K4N]` is recorded as -0.0432.
`KNAKRNLSSFFAN [E10F]`: “normalised enrichment score” -0.177.
`KNAHRNLSSEFAN [K4H]` — result for “normalised enrichment score”: -0.305.
For `KNAKRNLRSEFAN [S8R]`, “normalised enrichment score” read 0.179.
Under “normalised enrichment score”, `KNAKRNLSSEFQN [A12Q]` is recorded as -0.323.
For `KVAKRNLSSEFAN [N2V]`, “normalised enrichment score” read -0.0291.
`KNAKRNLYSEFAN [S8Y]`: “normalised enrichment score” -0.0229.
`KNAKDNLSSEFAN [R5D]` — result for “normalised enrichment score”: -0.151.

Series 2 — method: protein binding microarray; molecule type: double-stranded DNA, one strand shown; sample: in vitro; concentration: not given; reference: not given; direction: higher = stronger binding
Target: Histone acetyltransferase KAT6A, winged helix 1, GST fusion (KAT6A, Homo sapiens, UniProt Q92794, residues 1-85)
Notes: 8-mer, flanks averaged, mean of 2 arrays, mostly near background
Target sequence (chain): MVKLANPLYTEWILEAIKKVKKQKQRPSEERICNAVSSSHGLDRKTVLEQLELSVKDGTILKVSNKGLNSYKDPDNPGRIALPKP
`CGTCCTCA` gave an E-score of 0.044.
The E-score of `TCCTATAA` is reported as -0.184.
`GCAAAGGC` has an E-score of 0.0509.
`CGAGACAC` gave an E-score of -0.0593.
For `CTTACAAC`, the E-score was -0.179.
`AATTCTTG` has an E-score of -0.0877.
`CCGCGTAG` has an E-score of 0.27.
`CCTACTCA` has an E-score of -0.172.
The E-score of `CATCACAG` is reported as -0.0248.
With `AAGTTGGG` the E-score was -0.289.
For `GCATGTCA`, the E-score was -0.0297.
`AAGCCACT` has an E-score of -0.2.
For `CACTCTGC`, the E-score was -0.139.
`ATGCCTAC` gave an E-score of -0.266.
`AGAGACCC` has an E-score of 0.0597.
For `AGAACCAG`, the E-score was -0.0942.
With `CATCGTTA` the E-score was -0.126.
For `CGGGCCCC`, the E-score was 0.365.
`AACTGAGT` gave an E-score of -0.129.
For `GCGCCGTA`, the E-score was 0.439.
The E-score of `CAGTCGGC` is reported as 0.245.
For `ACGTGACC`, the E-score was -0.0636.
For `CTGTTCTC`, the E-score was -0.129.

Series 3 — method: DHFR PCA, deep sequencing; sample: yeast; together with: (+)-ABA 710 µM; reference: wild-type fitted maximum; direction: higher = stronger binding
Target: ABI1, truncated, D143A, DHFR fusion (Arabidopsis thaliana)
Notes: methotrexate growth selection, single substitutions
Starting sequence: PYL1, truncated, DHFR fusion (Arabidopsis thaliana); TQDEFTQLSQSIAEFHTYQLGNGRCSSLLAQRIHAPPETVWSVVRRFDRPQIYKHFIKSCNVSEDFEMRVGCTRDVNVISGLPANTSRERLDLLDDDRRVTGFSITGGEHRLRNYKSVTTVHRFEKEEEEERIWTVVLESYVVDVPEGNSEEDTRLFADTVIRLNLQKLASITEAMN; partner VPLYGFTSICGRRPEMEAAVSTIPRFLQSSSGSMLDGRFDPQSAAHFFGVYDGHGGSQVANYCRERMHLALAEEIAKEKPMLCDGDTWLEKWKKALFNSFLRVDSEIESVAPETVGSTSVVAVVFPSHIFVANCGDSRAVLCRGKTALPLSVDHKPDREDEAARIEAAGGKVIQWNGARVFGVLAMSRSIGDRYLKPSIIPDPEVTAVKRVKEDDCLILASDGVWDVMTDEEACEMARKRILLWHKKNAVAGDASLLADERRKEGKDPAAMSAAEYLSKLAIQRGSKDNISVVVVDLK
Under “relative binding score”, `E109C` is recorded as 101%.
`E147A`: “relative binding score” 97.1%.
Under “relative binding score”, `L164Y` is recorded as 105%.
`L91I` — result for “relative binding score”: 65.6%.
`L138P`: “relative binding score” 8.72%.
Under “relative binding score”, `E139H` is recorded as 93.5%.
`R132H`: “relative binding score” 110%.
Under “relative binding score”, `C60W` is recorded as 12.4%.
Under “relative binding score”, `E14V` is recorded as 88.7%.
For `S117H`, “relative binding score” read 24.5%.
`S104L`: “relative binding score” 63.1%.
Under “relative binding score”, `Y115M` is recorded as 73.5%.

Series 4 — target: UBE2N UBC core domain (UniProt P61088); method: yeast two-hybrid; sample: yeast; notes: mostly zero background; reference: not given; direction: higher = stronger interaction
B1: RC3H1 RING domain (UniProt Q5TC82); chain QAPQWTDFLSCPICTQTFDETIRKPISLGCGHTVCKMCLNKLHRKACPFDQTTINTDIELL
B2: TRIM13 RING domain (UniProt O60858); chain MELLEEDLTCPICCSLFDDPRVLPCSHNFCKKCLEGILEGSVRNSLWRPAPFKCPTCRKETSATGINS
B3: RNF111 RING domain (UniProt Q6ZNA4); chain EGTEEDTEEKCTICLSILEEGEDVRRLPCMHLFHQVCVDQWLITNKKCPICRVDIEAQLPSE
B4: RNF208 RING domain (UniProt Q9H0X6); chain SSAAAGEPLECPTCGHSYNVTQRRPRVLSCLHSVCEQCLQILYESCPKYKFISCPTCRRETVLFTDYG
B5: SH3RF2 RING domain (UniProt Q8TEC5); chain DDLTLLDLLECPVCFEKLDVTAKVLPCQHTFCKPCLQRVFKAHKELRCPECRTPVFSNIEAL
B6: TRIM24 RING domain (UniProt O15164); chain EAARLNLLDTCAVCHQNIQSRAPKLLPCLHSFCQRCLPAPQRYLMLPAPMLGSAETPPPVPAPGSPVSGSSPFATQVGVIRCPVCSQECAERHII
Target sequence (chain): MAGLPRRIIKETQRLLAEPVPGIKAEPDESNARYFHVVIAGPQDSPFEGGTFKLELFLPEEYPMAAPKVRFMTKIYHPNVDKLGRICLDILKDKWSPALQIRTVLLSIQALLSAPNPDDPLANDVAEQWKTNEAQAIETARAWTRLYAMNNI
`B1 (RC3H1 RING domain)`: “lacZ reporter activity” 0.
Under “lacZ reporter activity”, `PAELEVQASECVVCLEREAQMIFLNCGHVCCCQQCCQPLRTCPLCRQDIAQRLRIY (LRSAM1 RING domain (UniProt Q6UWE0))` is recorded as 3280.
`B2 (TRIM13 RING domain)` — result for “lacZ reporter activity”: 0.
For `B3 (RNF111 RING domain)`, “lacZ reporter activity” read 0.
`GAAPGPEAAECLVCSELALLVLFSPCQHRTVCEECARRMKKCIRCQVVVSKKLRPD (MIB2 RING domain (UniProt Q96AX9))`: “lacZ reporter activity” 0.
For `B4 (RNF208 RING domain)`, “lacZ reporter activity” read 0.
Under “lacZ reporter activity”, `B5 (SH3RF2 RING domain)` is recorded as 11500.
Under “lacZ reporter activity”, `ASLPTSEEDLCPICYAHPISAVFQPCGHKSCKACINQHLMNNKDCFFCKTTIVSVEDWE (RNF123 RING domain (UniProt Q5XPI4))` is recorded as 0.
`B6 (TRIM24 RING domain)` — result for “lacZ reporter activity”: 0.

Series 5 — method: RNAcompete; molecule type: RNA; sample: in vitro; concentration: 20 nM; notes: 7-mer, probes averaged, single round; reference: mean of 7-mers; direction: higher = stronger binding
Target: PABPC1L2, full length, GST fusion (mouse, UniProt A0ABA7IW68)
Residues (chain): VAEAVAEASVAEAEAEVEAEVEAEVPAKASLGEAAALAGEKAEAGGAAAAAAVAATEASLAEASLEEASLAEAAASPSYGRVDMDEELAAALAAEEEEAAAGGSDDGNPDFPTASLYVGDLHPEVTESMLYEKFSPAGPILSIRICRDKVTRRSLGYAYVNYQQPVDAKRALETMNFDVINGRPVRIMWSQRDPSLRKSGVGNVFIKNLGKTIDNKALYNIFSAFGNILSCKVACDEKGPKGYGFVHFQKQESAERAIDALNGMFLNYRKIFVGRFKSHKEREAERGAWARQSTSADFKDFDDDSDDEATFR
The 7-mer Z-score of `UCCGGGG` is reported as -0.0047.
The 7-mer Z-score of `CUCUUAG` is reported as -0.36.
`AAAAUUA` gave a 7-mer Z-score of 4.87.
`UCUAUAG` gave a 7-mer Z-score of -0.267.
`UAUCGUA` has a 7-mer Z-score of -0.222.
With `CGACGUG` the 7-mer Z-score was -0.0736.
`UCGCUGA` has a 7-mer Z-score of -0.179.
`GCCUGAG` gave a 7-mer Z-score of -0.0409.
`CAACCAA` has a 7-mer Z-score of 0.459.
`CUAGUCG` has a 7-mer Z-score of -0.354.
`UAGGAUC` has a 7-mer Z-score of -0.0573.
With `UCUCAAU` the 7-mer Z-score was -0.204.
For `UGACCCU`, the 7-mer Z-score was -0.197.
The 7-mer Z-score of `GCAUCCA` is reported as -0.0337.
`AAUGUGA` gave a 7-mer Z-score of 0.193.
With `AUCGCUA` the 7-mer Z-score was -0.208.
With `GAUGGUG` the 7-mer Z-score was -0.0663.
With `AUCUCGU` the 7-mer Z-score was -0.354.
For `UGUGAAC`, the 7-mer Z-score was -0.128.
With `AAGGCCU` the 7-mer Z-score was -0.0844.
For `UCGUAGC`, the 7-mer Z-score was -0.349.

Repeated from above (series 3):
Under “relative binding score”, `E14V` is recorded as 88.7%.
Under “relative binding score”, `E139H` is recorded as 93.5%.
Under “relative binding score”, `Y115M` is recorded as 73.5%.
`E147A`: “relative binding score” 97.1%.
Under “relative binding score”, `L164Y` is recorded as 105%.
`L138P`: “relative binding score” 8.72%.
`R132H`: “relative binding score” 110%.
Under “relative binding score”, `E109C` is recorded as 101%.
For `S117H`, “relative binding score” read 24.5%.
Under “relative binding score”, `C60W` is recorded as 12.4%.
`S104L`: “relative binding score” 63.1%.
`L91I` — result for “relative binding score”: 65.6%.
